Published values pooled from the literature.
Protocols differ between the studies behind these lines. “And” joins repeats or separate records; there may be more than shown. ± gives the spread as reported. Square brackets hold non-standard residues; d marks the D form. Ends that are not written are not given here.
Partner: itself
B1: collagen-like peptide; hydroxyproline at 16,19,22,25,28,31,34,37; Hyp = O=C(O)[C@@H]1C[C@@H](O)CN1; chain CGPKGPKGPKGPKGP[Hyp]GP[Hyp]GP[Hyp]GP[Hyp]GD[Hyp]GD[Hyp]GD[Hyp]GD[Hyp]G
B2: PUT2 23-575 (Saccharomyces cerevisiae, UniProt P07275); sequence looked up; chain KPPKHIRNEPVKPFRNIDLKDWDLLRASLMKFKSSSLEVPLVINGERIYDNNERALFPQTNPANHQQVLANVTQATEKDVMNAVKAAKDAKKDWYNLPFYDRSAIFLKAADLISTKYRYDMLAATMLGQGKNVYQAEIDCITELSDFFRYYVKYASDLYAQQPVESADGTWNKAEYRPLEGFVYAVSPFNFTAIAANLIGAPALMGNTVVWKPSQTAALSNYLLMTVLEEAGLPKGVINFIPGDPVQVTDQVLADKDFGALHFTGSTNVFKSLYGKIQSGVVEGKYRDYPRIIGETGGKNFHLVHPSANISHAVLSTIRGTFEFQGQKCSAASRLYLPESKSEEFLSDMFGILQSQNVVPMNTSASPISGGNLRGFMGPVIHEQSFDKLVKVIEDAKKDPELEILYGGQYDKSQGWFVGPTVIKAKRPDHPYMSTEFFGPILTVYEYPDTEFNEICDIIDNTSQYALTGAIFAKDRKAIEYADEKLKFSAGNFYINDKCTGAVVSQQWFGGARMSGTDDKAGGPNILSRFVSIRNTKENFYELTDFKYPSNYE
B3: GCN4 leucine zipper heterodimer leucine zipper; C-terminal disulfide link; chain 1 MKVKQLVDKVEELLSKNYHLVNEVARLVKLVGERGGC; chain 2 MKVKQLEDVVEELLSVNYHLENVVARLKKLVGERGGC
B4: rne 330-823 D694R/D738R (Mycolicibacterium smegmatis, UniProt A0R152); chain SDKSDDSEIQGISGSTRLEAKRQRRRDGRDAGRRRPPILSEAEFLARREAVERTMIVRDKVRTEPPHEGARYTQIAVLEDGVVVEHFVTSAASASLVGNIYLGIVQNVLPSMEAAFVDIGRGRNGVLYAGEVNWEAAGLGGQNRKIEQALKPGDYVVVQVSKDPVGHKGARLTTQVSLAGRYLVYVPGASSTGISRKLPDTERQRLKEILREVVPSDAGVIIRTASEGVKEEDIRSDVERLQKRWSEIEAKAAEVTEKKAGAAVALYEEPDVLVKVIRDLFNEDFSSLIVSGDEAWNTINSYVEAVAPDLMPRLTKYEPAGPDAPDVFAVHRIDEQLAKAMDRKVWLPSGGTLVIDRTEAMTVVRVNTGKFTGSGGNLEQTVTRNNLEAAEEIVRQLRLRDIGGIVVIRFIDMVLESNRDLVLRRLTEALARDRTRHQVSEVTSLGLVQLTRKRLGTGLVEAFSTACTHCGGRGIVLHGDPIDSASSNGGRKSD
B5: vapC L43A (Salmonella typhimurium, UniProt Q8ZM86); chain MLKFMLDTNTCIFTIKNKPEHIRERFNLNTSRMCISSITLMEAIYGAEKSLAPERNLAVVEGFISRLEVLDYDTQAAIHTGQIRAELARKGTPVGPYDQMIAGHAGSRGLVVVTNNLREFERIPGIRIEDWC
B6: retS periplasmic 41-185 S45C (Pseudomonas aeruginosa, UniProt Q9HUV7); Alexa Fluor 488 or 555; chain ATTPCANQNWRLLRDESAQLRIADVLQRKEQFRPLAKRSFIFPASPQAVWLQVQLPAQKVPSWLWIFAPRVQYLDYYLVQDGQLVRDQHTGESRPFQERPLPSRSYLFSLPVDGKPMTLYVRMTSNHPLMAWFDQIDEAGLVGLE
B7: estF trimer 2-272 T3C/Q174C (Pseudomonas fluorescens, UniProt P22862); chain SCFVAKDGTQIYFKDWGSGKPVLFSHGWLLDADMWEYQMEYLSSRGYRTIAFDRRGFGRSDQPWTGNDYDTFADDIAQLIEHLDLKEVTLVGFSMGGGDVARYIARHGSARVAGLVLLGAVTPLFGQKPDYPQGVPLDVFARFKTELLKDRAQFISDFNAPFYGINKGQVVSCGVQTQTLQIALLASLKATVDCVTAFAETDFRPDMAKIDVPTLVIHGDGDQIVPFETTGKVAAELIKGAELKVYKDAPHGFAVTHAQQLNEDLLAFLKR
B8: Gag/MVP Gag 148-214 fused to MVP (HIV-1/Rattus norvegicus); chain MTPRTLNAWVKVVEEKAFSPEVIPMFTALSEGATPSDLNTMLNTIGGHQAAMQMLKDTINEEAAEWDRGFLGLMATEEAIIRIPPYHYIHVLDQNSNVSRVEVGPKTYIRQDNERVLFAPVRMVTVPPRHYCIVANPVSRDTQSSVLFDITGQVRLRHADQEIRLAQDPFPLYPGEVLEKDITPLQVVLPNTALHLKALLDFEDKNGDKVMAGDEWLFEGPGTYIPQKEVEVVEIIQATVIKQNQALRLRARKECFDREGKGRVTGEEWLVRSVGAYLPAVFEEVLDLVDAVILTEKTALHLRALQNFRDLRGVLHRTGEEWLVTVQDTEAHVPDVYEEVLGVVPITTLGPRHYCVILDPMGPDGKNQLGQKRVVKGEKSFFLQPGERLERGIQDVYVLSEQQGLLLKALQPLEEGESEEKVSHQAGDCWLIRGPLEYVPSAKVEVVEERQAIPLDQNEGIYVQDVKTGKVRAVIGSTYMLTQDEVLWEKELPSGVEELLNLGHDPLADRGQKGTAKPLQPSAPRNKTRVVSYRVPHNAAVQVYDYRAKRARVVFGPELVTLDPEEQFTVLSLSAGRPKRPHARRALCLLLGPDFFTDVITIETADHARLQLQLAYNWHFELKNRNDPAEAAKLFSVPDFVGDACKAIASRVRGAVASVTFDDFHKNSARIIRMAVFGFEMSEDTGPDGTLLPKARDQAVFPQNGLVVSSVDVQSVEPVDQRTRDALQRSVQLAIEITTNSQEAAAKHEAQRLEQEARGRLERQKILDQSEAEKARKELLELEAMSMAVESTGNAKAEAESRAEAARIEGEGSVLQAKLKAQALAIETEAELERVKKVREMELIYARAQLELEVSKAQQLANVEAKKFKEMTEALGPGTIRDLAVAGPEMQVKLLQSLGLKSTLITDGSSPINLFSTAFGLLGLGSDGQPPAQK
B9: vapC I44A (Salmonella typhimurium, UniProt Q8ZM86); chain MLKFMLDTNTCIFTIKNKPEHIRERFNLNTSRMCISSITLMELAYGAEKSLAPERNLAVVEGFISRLEVLDYDTQAAIHTGQIRAELARKGTPVGPYDQMIAGHAGSRGLVVVTNNLREFERIPGIRIEDWC

| Molecule | test | test system | conditions | scale | measurement | value |
| --- | --- | --- | --- | --- | --- | --- |
| B1 (collagen-like peptide) | ITC | peptide | pH 5.0, 22 °C |  | binding | binds |
| B2 (PUT2 23-575) | SAXS |  |  |  | subunits per oligomer | 6 |
| B3 | AUC |  |  |  | subunits per oligomer | 2 |
| B4 (rne 330-823 D694R/D738R) | SEC |  |  |  | subunits per oligomer | 2 and 4 |
| B5 (vapC L43A) | lacZ reporter |  |  | relative to: wild type, higher = more transcription | vapBC transcription | 5.2 fold |
| B6 (retS periplasmic 41-185 S45C) | FRET |  | pH 7.4, 24 °C, NaCl 150 mM |  | Kd | 580 ± 50 nM |
| B7 (estF trimer 2-272 T3C/Q174C) | dynamic light scattering |  |  |  | subunits per oligomer | 3 |
| B8 | cryo-EM |  |  |  | subunits per oligomer | 78 |
| B9 (vapC I44A) | lacZ reporter |  |  | relative to: wild type, higher = more transcription | vapBC transcription | 1.4 fold |

Excerpt of the above:
| Molecule | test | test system | conditions | scale | measurement | value |
| --- | --- | --- | --- | --- | --- | --- |
| B9 (vapC I44A) | lacZ reporter |  |  | relative to: wild type, higher = more transcription | vapBC transcription | 1.4 fold |
